Measurements from different studies.
Each numbered part is a random draw from the data of one study; scales do not carry over between parts. Changes are numbered by the printed parent chain.

Set 1 — method: protein-binding microarray; form: double-stranded DNA, one strand shown; matrix: in vitro; tested at: 2540 nM top; setting: 60-bp whole probe; together with: salmon DNA 0.4 mg/ml; reference: random background probes; reading: higher = stronger binding; constant ends, left off below: GCCTAGCAC … GTCTTGATTCGCTTGACGCTGCTG
Target: Interferon regulatory factor 3, full length, phosphomimetic (IRF3, Homo sapiens, UniProt Q14653, residues 1-427, S386D/S396D/S398D/S402D/T404D/S405D)
Chain of UniProt Q14653 (whole entry, unmodified, looked up): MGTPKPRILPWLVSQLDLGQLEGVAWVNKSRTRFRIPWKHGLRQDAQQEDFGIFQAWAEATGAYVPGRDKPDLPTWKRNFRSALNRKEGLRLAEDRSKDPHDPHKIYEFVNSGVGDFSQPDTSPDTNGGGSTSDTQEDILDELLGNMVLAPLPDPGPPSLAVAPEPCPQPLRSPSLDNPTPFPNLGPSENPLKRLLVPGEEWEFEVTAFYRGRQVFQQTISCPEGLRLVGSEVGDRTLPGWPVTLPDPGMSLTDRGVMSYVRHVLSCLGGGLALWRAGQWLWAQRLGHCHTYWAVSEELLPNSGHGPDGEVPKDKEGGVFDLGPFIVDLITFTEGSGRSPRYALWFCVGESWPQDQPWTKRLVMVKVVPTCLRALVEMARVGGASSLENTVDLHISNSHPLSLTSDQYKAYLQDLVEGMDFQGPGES
Oligonucleotide	fitted relative affinity
TCAAGTTTTCATTTTCTACTGTGCTAG	3.8 z-score
TTAGGACTGCTTATCCTTTTGTGCTAG	0.49 z-score
TTCGGTATCGGTATCGGTTAGTGCTAG	5.71 z-score
TACGGTTTCGGTCTCGGGACGTGCTAG	8.13 z-score
GAGGGTTTCCTTTCCCTGACGTGCTAG	8.7 z-score
GACGGTACCGGTATCGGGACGTGCTAG	2.27 z-score
GACGGTATCGACTTTCGGAACGTGCTA	2.5 z-score
TCATCATTATTGTGTCAAACTGTGCTA	0.435 z-score
CTGATTTTGCTTTCATTTATGTGCTAG	2.22 z-score
TCCTTCCACCATCTGATCAGGTGCTAG	0.998 z-score
TGTTTTTCATTTTTTTTCATGTGCTAG	2.48 z-score

Set 2 — target: CREB3L3, bZIP domain (human); method: DHFR protein complementation; matrix: yeast; reference: wild-type JUN-FOS pair; reading: higher = stronger binding
Setting: single substitutions, most at no-binding floor
Starting sequence: JUN, bZIP domain (human); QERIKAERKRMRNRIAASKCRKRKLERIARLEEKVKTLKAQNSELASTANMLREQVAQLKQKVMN; partner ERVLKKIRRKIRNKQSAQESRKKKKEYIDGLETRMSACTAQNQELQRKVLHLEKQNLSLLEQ
Change	binding fitness
A29L	-1.44 natural log
R53M	-1.53 natural log
L31Y	-1.53 natural log
I28P	-1.41 natural log
E32A	-1.2 natural log
E33S	-1.48 natural log
R53C	-1.24 natural log
V56H	-1.47 natural log
A46R	-1.39 natural log
M51Q	-1.54 natural log
R30N	-1.53 natural log
V35S	-1.43 natural log
M51S	-1.52 natural log
A46S	-1.5 natural log
T48I	-1.53 natural log
L31V	-1.5 natural log
S47P	-1.54 natural log
N42S	-1.48 natural log
V35L	-1.55 natural log
L31F	-1.54 natural log

Set 3 — method: DHFR PCA, deep sequencing; matrix: yeast; together with: (+)-ABA 2500 µM; reference: wild-type fitted maximum; reading: higher = stronger binding
Target: ABI1, truncated, D143A, DHFR fusion (Arabidopsis thaliana)
Setting: methotrexate growth selection, single substitutions
Starting sequence: PYL1, truncated, DHFR fusion (Arabidopsis thaliana); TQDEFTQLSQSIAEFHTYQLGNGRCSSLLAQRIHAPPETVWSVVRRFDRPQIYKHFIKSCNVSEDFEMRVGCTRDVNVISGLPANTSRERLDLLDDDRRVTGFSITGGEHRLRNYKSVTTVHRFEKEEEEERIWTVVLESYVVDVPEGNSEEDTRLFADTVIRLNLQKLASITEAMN
Change	relative binding score
K126V	105%
F157G	-2.52%
G81E	62.3%
S104A	90.2%
D92W	82.6%
H34T	93.8%
Y18K	95.5%
R49G	85.4%
W134V	104%
R45I	42%

Set 4 — method: aptamer microarray, sandwich; form: DNA with 2'F-ANA; matrix: in vitro; tested at: 200 nM; together with: Cy3 exosite-II aptamer, 400 nM; reading: higher = stronger binding; oligonucleotide: GGTTGGTGTGGTTGG
Target: Prothrombin, mature alpha-thrombin (F2, Homo sapiens, UniProt P00734)
Setting: whole 15-mer aptamer, many near background
Modification	mean fluorescence intensity
2'F-ANA at 2 3 5 6 9 15	88.8 a.u.
2'F-ANA at 2 3 4 6 10 12 14 15	167 a.u.
2'F-ANA at 1 2 3 4 7 8 11 12 13 15	267 a.u.
2'F-ANA at 1 3 4 5 6 7 14 15	47.6 a.u.
2'F-ANA at 3 5 6 7 8 11 12 14 15	60.5 a.u.
2'F-ANA at 1 4 5 6 7 8 12 13 14	45.3 a.u.
2'F-ANA at 1 3 4 5 7 9 10 11 12 14	46.3 a.u.
2'F-ANA at 2 4 5 6 7 11 14 15	47.7 a.u.
2'F-ANA at 1 2 3 5 8 9 10 13	114 a.u.
2'F-ANA at 1 2 3 6 8 10 11 13 14 15	66.9 a.u.
2'F-ANA at 1 2 4 8 9 10 12 15	57.9 a.u.
2'F-ANA at 3 5 6 8 11 12 14 15	75.2 a.u.
2'F-ANA at 1 2 4 8 9 13	85.3 a.u.
2'F-ANA at 3 6 7 11 12 13 15	1030 a.u.
2'F-ANA at 3 4 5 6 8 10 13 15	77.3 a.u.
2'F-ANA at 3 4 5 9 10 11 12 13	56.3 a.u.
2'F-ANA at 3 6 8 10 12 14	363 a.u.
2'F-ANA at 1 2 6 7 12 14	61.1 a.u.
2'F-ANA at 1 2 3 5 6 8 9 12 15	132 a.u.
2'F-ANA at 2 4 9 10 11 12	120 a.u.

Set 5 — method: RNA Bind-n-Seq; form: RNA; matrix: in vitro; tested at: 200 nM; setting: whole 134-nt RNA, ends assumed; together with: 150 mM LiCl; reference: input library; reading: higher = stronger binding; all molecules: 7-deaza-guanosine replaces G
Target: Fragile X messenger ribonucleoprotein 1, C-terminal low-complexity region (Fmr1, Mus musculus, UniProt P35922)
Constant ends, left off below: GGGAGUUCUACAGUCCGACGAUC … UGGAAUUCUCGGGUGUCAAGG
Oligonucleotide	log2 enrichment
ACUGGACCAGAUUGUUGAAAAAGGAAGACCAGCUCCUGGCUUCCAUCAUGGCGAUGGACCGGGAAAUGCAGUUCAAGAAAUCAUGAUUCC	-2.03
GCAGGAAGUAAAAACAAAUGGAAAUGCUUCGGAUAGUGGCAGGGGUGGGGGUUGCUAAGGAAAGGGUGGGAUGGGAGUGGGUAAAGGGUU	1.47
UCCUCAAGUCCUGUGCUACACAUCGUAUGUACCGAAUCGGAGGAGGGAGGGGAAAGUAUUAUGUUACGCCGUUCGGAUCUGCACUUCCAG	-0.994
UCCUGUGCUACACAUCGUAUGUACCGAAUCAAAGUGUGUGUGUGUGUGUGUGUGUGAAAAAAGUAUUAUGUUACGCCGUUCGGAUCUGCA	-0.525
AGUCCUGUGCUACACAUCGUAUGUACCGAAUCAAACCCCCAAACCCCCAAACCCAAAAAAGUAUUAUGUUACGCCGUUCGGAUCUGCACU	0.137
UGGCCCUGGUGGCAUGCGGGGAGGAAGAGGUGGCCUCAUGGAUCGUGGUGGUCCCGGUGGAAUGUUCAGAGGUGCCCGUGGUGGAGACAG	-0.366
AAGUCCUGUGCUACACAUCGUAUGUACCGAAUCGGGAGGGAAAGGGUUUUUUUGGGAAAGUAUUAUGUUACGCCGUUCGGAUCUGCACUU	-1.39
UCCUGUGCUACACAUCGUAUGUACCGAAUCGGCCCCCCGGGCCCCCCGGCCCCCCGGGGAAAGUAUUAUGUUACGCCGUUCGGAUCUGCA	-0.197
ACCACUGCUACAGUCACCACCACCCAGGCCUCCUAUGCAGCUCAGUCUGCAUAUGGCACUCAGCCUGCUUAUCCAGCCUAUGGGCAGCAG	1.29
AUAUGAGUAAAAUCUGUCCCUUUUUCCCCCUUUGAAUGAGGUCUUCCAUGUUUGAGGGAAAGUCUUGCACUAUUGCAUAUAUUUUGGGGA	1.44
AGUCCUGUGCUACACAUCGUAUGUACCGAAUCAAACCCAAAUUUUUUUAAAUUUAAAAAAGUAUUAUGUUACGCCGUUCGGAUCUGCACU	-1.85

Set 6 — target: CCNB2, cyclin fold, Cln2 fusion (human); method: yeast growth competition, sequencing; matrix: yeast; setting: weak parent motif; reference: not given; reading: higher = stronger binding
Starting sequence: CDKN1B docking peptide (human); PSACRNLFGPVDH; partner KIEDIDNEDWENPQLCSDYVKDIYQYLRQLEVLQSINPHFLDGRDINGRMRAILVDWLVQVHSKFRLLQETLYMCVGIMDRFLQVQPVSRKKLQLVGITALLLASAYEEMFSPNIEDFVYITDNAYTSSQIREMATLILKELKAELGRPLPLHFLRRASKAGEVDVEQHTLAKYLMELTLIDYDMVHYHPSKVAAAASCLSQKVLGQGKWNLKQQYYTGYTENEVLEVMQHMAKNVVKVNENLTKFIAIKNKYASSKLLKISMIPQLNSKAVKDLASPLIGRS
Change	normalised enrichment score
PSACRNQFGPVDH [L7Q]	0.0998
PSACRNLFGPVDA [H13A]	-0.101
PSACSNLFGPVDH [R5S]	-0.146
PSACRNLFGPVDQ [H13Q]	0.0563
PSACPNLFGPVDH [R5P]	-0.338
PNACRNLFGPVDH [S2N]	-0.0442
PSACRNLNGPVDH [F8N]	0.0879
PSANRNLFGPVDH [C4N]	-0.142
PSACRNLFGRVDH [P10R]	0.12
PSDCRNLFGPVDH [A3D]	-0.302
PSACRNLFGPVIH [D12I]	-0.063
PSACRNLFGPVDK [H13K]	0.2
PHACRNLFGPVDH [S2H]	-0.294
PSAVRNLFGPVDH [C4V]	0.192
PSACRRLFGPVDH [N6R]	-0.00869
PSASRNLFGPVDH [C4S]	0.0741
PSACRNLFGPVLH [D12L]	0.227
PSTCRNLFGPVDH [A3T]	-0.289
PSACCNLFGPVDH [R5C]	-0.462
PSACRNLFGPCDH [V11C]	-0.327
CSACRNLFGPVDH [P1C]	-0.554
PSFCRNLFGPVDH [A3F]	0.61
PSACRNLFIPVDH [G9I]	0.183
PSACRILFGPVDH [N6I]	-0.0386
PSACRNLQGPVDH [F8Q]	0.0803

A few entries again (set 4):
Modification	mean fluorescence intensity
2'F-ANA at 3 5 6 7 8 11 12 14 15	60.5 a.u.
2'F-ANA at 1 4 5 6 7 8 12 13 14	45.3 a.u.
2'F-ANA at 1 3 4 5 7 9 10 11 12 14	46.3 a.u.
2'F-ANA at 2 4 5 6 7 11 14 15	47.7 a.u.
2'F-ANA at 1 2 3 5 8 9 10 13	114 a.u.
2'F-ANA at 1 2 3 6 8 10 11 13 14 15	66.9 a.u.
2'F-ANA at 1 2 4 8 9 10 12 15	57.9 a.u.
2'F-ANA at 3 5 6 8 11 12 14 15	75.2 a.u.
2'F-ANA at 1 2 4 8 9 13	85.3 a.u.
2'F-ANA at 3 6 7 11 12 13 15	1030 a.u.
